Experimental data of several laboratories.
Lines come from different studies, so protocols differ.
Effect on: metabolic stability
Host: human

Structure (SMILES) | system | conditions | half-life [h]
CCCCCn1ccc(C(=O)NC(C)(C)c2ccc(CNC(C)=O)cc2)n1 | liver microsomes |  | 1.43
C[C@]12CC[C@H]3[C@@H](CCC4=CC(=O)CC[C@@]43C)[C@@H]1CC[C@@H]2O | hepatocytes | 1 µM | 0.335
c1cc(OCCN2CCOCC2)cc([C@H]2CCC[C@@]3(C2)OOC2(O3)C3CC4CC(C3)CC2C4)c1 (mixture of isomers) | liver microsomes |  | 0.4
Cc1ccc(CNC(=O)c2ccn3c(-c4ccc(C#N)cc4)cnc3c2)cn1 | liver microsomes |  | 1.02
NC1CCN(C(=O)Oc2cccc([C@H]3CCC[C@@]4(C3)OOC3(O4)C4CC5CC(C4)CC3C5)c2)C1 (some centres unmarked) | liver microsomes |  | 1.26
[2H]c1nc([2H])c(-c2nc([2H])n3c2C([2H])([2H])N=C(c2ccccn2)c2cc(C#C)ccc2-3)o1 | liver microsomes |  | 20.4
COc1cc2c(cc1NC(=O)c1cncn1C)C[C@H]1[C@H]3CCCC[C@@]23CCN1C | liver microsomes |  | 0.555
CCc1nnc(-c2c(OC)cc(-c3cnc4cc(-c5cnn(C)c5)ccn34)cc2OC)o1 | liver microsomes |  | > 2.48
CCN(CC)CCOc1ccc(-c2nnn(Cc3ccc(OC)cc3)c2N)cc1 | plasma |  | > 6.21
CN(C)CCCNC(=O)C[C@H](Cc1ccc(F)cc1)NC(=O)[C@@H](Cc1ccc(Cl)cc1Cl)NC(=O)[C@H](N)Cc1ccccc1C#N | liver microsomes | 1 µM | 0.127
c1cc([C@H]2CCC[C@@]3(C2)OOC2(O3)C3CC4CC(C3)CC2C4)ccc1OCCN1CCOCC1 (mixture of isomers) | liver microsomes |  | 1.08

For quick reference, copied from above:
Structure (SMILES) | system | conditions | half-life [h]
c1cc([C@H]2CCC[C@@]3(C2)OOC2(O3)C3CC4CC(C3)CC2C4)ccc1OCCN1CCOCC1 (mixture of isomers) | liver microsomes |  | 1.08
